Results pooled from the literature.
Parts stem from different laboratories: compare values within a part only. Changes are numbered by the printed parent chain.

Set 1 — method: protein-binding microarray; form: double-stranded DNA, one strand shown; sample: in vitro; tested at: 0.8 µM; setting: whole 60-bp probe, no competitor; direction: higher = stronger binding
Target: Centromere-binding protein 1, full length, N-terminal tag (CBF1, Saccharomyces cerevisiae, UniProt P17106, residues 1-351)
UniProt P17106, sequence (whole entry, looked up): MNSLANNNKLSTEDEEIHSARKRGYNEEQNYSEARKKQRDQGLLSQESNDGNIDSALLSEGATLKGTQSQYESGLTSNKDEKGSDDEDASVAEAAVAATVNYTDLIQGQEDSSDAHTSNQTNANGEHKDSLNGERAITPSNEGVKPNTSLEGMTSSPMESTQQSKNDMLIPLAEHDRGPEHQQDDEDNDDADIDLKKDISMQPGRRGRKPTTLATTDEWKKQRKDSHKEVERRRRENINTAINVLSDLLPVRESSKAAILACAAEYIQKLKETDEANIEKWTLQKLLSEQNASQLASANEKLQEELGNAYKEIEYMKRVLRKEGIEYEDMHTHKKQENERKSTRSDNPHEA
Sequence | fluorescence intensity [a.u.]
GAAAATGGTAACTGTGACCCATGTACTCCGCTATAGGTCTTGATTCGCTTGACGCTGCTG | 569
GAACCAGATTGCCCTCACGTGAGGCTTCAGTAATAGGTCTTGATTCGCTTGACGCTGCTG | 6430
GAATGAAAGTGGGGTGCTCAGCTGATTTGCATCTAGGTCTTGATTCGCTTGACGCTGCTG | 763
GAAGTTTTTACTAGGCATCAGAACTGTCTCCGATAGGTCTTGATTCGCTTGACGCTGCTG | 476
CTATTACTTTTTTGTGACATCAAAATGAAGCACTTCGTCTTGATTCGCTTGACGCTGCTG | 580
CTAAGCACAAACCGTCACATGCCGTTCCGAAATTTCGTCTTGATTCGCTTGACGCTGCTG | 1470
CTATGTTTGTGGGATCTGTCACGTATATCGCCATTCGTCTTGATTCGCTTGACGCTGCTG | 724
CTACCGCAGAGTGATTGGGTCACAGGAAATAGCTTCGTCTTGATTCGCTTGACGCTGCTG | 535
CTATAGCTTAACTGGCACATCATGAAAAGGATGTTCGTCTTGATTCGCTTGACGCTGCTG | 692
GAAGGAAAGATTACCCACCTGATATGCGTTAATTAGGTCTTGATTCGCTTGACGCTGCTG | 677
GAAAAATTAAGCGGAGGTGTGATTTGTTATATCTAGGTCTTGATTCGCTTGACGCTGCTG | 575
CTAACTGATGAGTTCCACCTGCTTATTGTTTATTTCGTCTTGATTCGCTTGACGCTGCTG | 536
GAATAATACCCCAGTCACGAAAGGTGTGCTGCTTAGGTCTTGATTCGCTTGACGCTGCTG | 545
GAAAAATGAGAAAAAGTCATCAGGATAAAAGAATAGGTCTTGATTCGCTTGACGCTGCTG | 543
CTAAGTGTAAGCGGTCAGGTGTAAGTAGTAGGCTTCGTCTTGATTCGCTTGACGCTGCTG | 1130
CTACGATTGGTTTATCACGTAAGTTTCTTATGATTCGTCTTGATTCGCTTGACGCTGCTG | 504
GAAGCACGTGATATACACCTGACCTATAATATTTAGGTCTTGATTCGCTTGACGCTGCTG | 18600

Set 2 — method: DHFR PCA, deep sequencing; sample: yeast; with: (+)-ABA 0.39 µM; reference: wild-type fitted maximum; direction: higher = stronger binding
Target: ABI1, truncated, D143A, DHFR fusion (Arabidopsis thaliana)
Setting: methotrexate growth selection, single substitutions
Starting sequence: PYL1, truncated, DHFR fusion (Arabidopsis thaliana); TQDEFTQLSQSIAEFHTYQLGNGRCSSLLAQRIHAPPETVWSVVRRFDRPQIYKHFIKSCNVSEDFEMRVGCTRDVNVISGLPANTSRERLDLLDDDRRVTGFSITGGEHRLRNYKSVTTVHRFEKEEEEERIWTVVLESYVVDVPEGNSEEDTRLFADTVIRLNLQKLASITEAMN; partner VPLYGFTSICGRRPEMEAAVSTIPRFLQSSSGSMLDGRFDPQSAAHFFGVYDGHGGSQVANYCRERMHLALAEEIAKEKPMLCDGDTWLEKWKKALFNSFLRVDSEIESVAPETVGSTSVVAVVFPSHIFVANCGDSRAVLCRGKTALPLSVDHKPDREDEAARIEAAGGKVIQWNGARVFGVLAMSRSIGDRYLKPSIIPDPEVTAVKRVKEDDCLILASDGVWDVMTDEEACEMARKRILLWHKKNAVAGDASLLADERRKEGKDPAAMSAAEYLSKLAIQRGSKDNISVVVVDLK
Change | relative binding score
L164G | 15.7%
T73L | 31.1%
N177T | 57.1%
G21S | 49.6%
Y18V | 8.33%
L138N | -25.5%
S150W | -4.09%
V40Q | -16.3%
G23K | 27.9%
V136L | 33.1%
G71Y | -5.29%
Q51T | -2.92%
P36K | 29.9%
G71D | -6.74%
E127Y | 32.5%
E131I | 27.4%

Set 3 — method: RNA Bind-n-Seq; form: RNA; sample: in vitro; tested at: not given; reference: input RNA pool; direction: higher = stronger binding
Target: RING finger protein unkempt homolog, zinc fingers 1-6, GST-SBP tag (UNK, Homo sapiens, UniProt Q9C0B0, residues 30-357)
Setting: RNA with constant flanks, human-mouse chimeric sites, ends assumed
Construct (chain): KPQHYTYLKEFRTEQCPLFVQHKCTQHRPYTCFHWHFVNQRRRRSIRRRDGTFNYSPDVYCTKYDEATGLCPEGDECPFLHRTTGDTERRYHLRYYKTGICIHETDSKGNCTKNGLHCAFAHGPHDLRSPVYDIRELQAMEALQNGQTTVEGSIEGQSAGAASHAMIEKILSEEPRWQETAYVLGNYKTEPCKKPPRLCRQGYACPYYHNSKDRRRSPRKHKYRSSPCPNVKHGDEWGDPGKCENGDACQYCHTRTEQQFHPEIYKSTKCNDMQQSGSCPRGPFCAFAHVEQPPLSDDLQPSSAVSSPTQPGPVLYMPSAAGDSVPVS
Sequence | bound/input enrichment
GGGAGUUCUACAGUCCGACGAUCGGCUGCUACUAUUCUCCCUGGAGUGGCCGUGUCACCGGCCGGAGCGCGGCCAGACUAAUUUUAGAAAAUGCCAAGUAGGAAGUUUGUUGAGGGUGAAGUGGUCAGAGGCCGAUGGCCUGGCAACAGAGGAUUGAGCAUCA | 9.62 ratio
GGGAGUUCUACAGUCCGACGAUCCGGAGCCCUCCUCUCCCACAGGCCCAAGAUGUGACCCACCAGUGCCUUUUGUCUUCCUGUCAGCUCUGUCAAUCACGCCUGUCCUCUCACGCCCACACUCCCCAGCCAAAGUGGGGAGGGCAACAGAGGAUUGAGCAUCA | 0.356 ratio
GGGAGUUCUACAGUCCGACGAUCGCGGCAGAAUCAUGGAGGACAUAAUGCAGCUCCCCAAAGCGCGCGUCAACGCCGGCAUGUUACCACAGUAUAUCGACCGGCCCGUGUGCUUCGUGGGGAGGCUGGAAAAGAUUCAUCCCACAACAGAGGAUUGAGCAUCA | 0.0683 ratio
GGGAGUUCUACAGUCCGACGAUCAAUGUUCAUAUUUUGAGUGAAUAAAUGAAGCUAAAAUGUCUGCUUUUGGUACAACACGCAUUAAUAAAAGGUUAAGUUUUGUUUUCCACUGAAGUACUAUUUAACAUCUCAGAAAAAAACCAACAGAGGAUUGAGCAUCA | 0.163 ratio
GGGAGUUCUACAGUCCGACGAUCGAAUCCUCCCGUGCAAAAUUUUGCAACACCAAGCUCAAGUAGCAAUUAUCUUAGUCACAGUAGGGUAGUUUUGGGGCUCUGUGGCCAGGGUUUUAUUCACAUGCAGGUUUGGAAAAUGUACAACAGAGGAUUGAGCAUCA | 2.12 ratio
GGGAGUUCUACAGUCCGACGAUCGGCUGCUGGUGACUGUCGGGAGCCGUCUGGAGUUCCCGCCGGAGCGCGGCCAGACUAAUUUUAGAAAAUGCCAAGUAGGAAGUUUGUUGAGGGUGAAGUGGUCAGAGGCCGAUGGCCUGGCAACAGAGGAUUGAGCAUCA | 2.44 ratio
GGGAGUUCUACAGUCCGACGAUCUCCCAAAUUAUAAGGCAAGAAGGAGCCUUGAGACAAACACUCCACACACAGGGAAGGCGAUAACAUUGUACAUUGGUUUACAUUUUUUCCCCCUGUGGAUUUUUCUAUCCUAGUGCUUGCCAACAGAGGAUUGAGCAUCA | 0.224 ratio
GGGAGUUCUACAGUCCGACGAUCGCACUUGGGAAUGUAAUCAGCGCCUUGGGGGACAAGAGCAAGAGAGCCACCCAUGUCCCCUAUAGAGACUCUAAGCUGACAAGACUCUUGCAGGAUUCCCUUGGGGGUAACAGCCAAACCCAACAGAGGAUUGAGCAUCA | 0.147 ratio
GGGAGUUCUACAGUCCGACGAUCAAAGAGAAACUAAAGCAACUAAUAGAGAAGAGGAUUGGCAAAGAGAAUUUCAUAGAGAAACUAGGAUUUAUUAGCAAAACAUGAGUUUAUUCCAGAGCGUCUCAGAAACCCCAGCCAAACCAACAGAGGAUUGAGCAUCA | 12.1 ratio
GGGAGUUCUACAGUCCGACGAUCAACUUCGUGCAUCGGUUUCCCUUUGUAGCUGUUUCAAUUGGCUUUGCUGUGAAUAAAGAGAUGGAGUUUGGAGUUGUGUACAGCUGUGUGGAAGAUAAGAUGUACACCGGCAGGAAAGGGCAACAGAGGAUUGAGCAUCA | 0.586 ratio
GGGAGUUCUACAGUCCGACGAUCAUGGAACAUUUUGAUGCGUCACUCAGUACCUAUUUCAAGGCCUUCCUGGGCCCCCGAGAUACAAGAGUCAAAGGAUGGUUCCUCCUGGACAAUUACAUCCCUACGUUUAUCUGCUCUGUUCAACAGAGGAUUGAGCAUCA | 0.106 ratio

Set 4 — method: universal PBM; form: double-stranded DNA, one strand shown; sample: in vitro; tested at: 600 nM; direction: higher = stronger binding
Target: Sal-like protein 4, full length isoform A (SALL4, Homo sapiens, UniProt Q9UJQ4, residues 1-1053)
UniProt Q9UJQ4, sequence (whole entry, looked up): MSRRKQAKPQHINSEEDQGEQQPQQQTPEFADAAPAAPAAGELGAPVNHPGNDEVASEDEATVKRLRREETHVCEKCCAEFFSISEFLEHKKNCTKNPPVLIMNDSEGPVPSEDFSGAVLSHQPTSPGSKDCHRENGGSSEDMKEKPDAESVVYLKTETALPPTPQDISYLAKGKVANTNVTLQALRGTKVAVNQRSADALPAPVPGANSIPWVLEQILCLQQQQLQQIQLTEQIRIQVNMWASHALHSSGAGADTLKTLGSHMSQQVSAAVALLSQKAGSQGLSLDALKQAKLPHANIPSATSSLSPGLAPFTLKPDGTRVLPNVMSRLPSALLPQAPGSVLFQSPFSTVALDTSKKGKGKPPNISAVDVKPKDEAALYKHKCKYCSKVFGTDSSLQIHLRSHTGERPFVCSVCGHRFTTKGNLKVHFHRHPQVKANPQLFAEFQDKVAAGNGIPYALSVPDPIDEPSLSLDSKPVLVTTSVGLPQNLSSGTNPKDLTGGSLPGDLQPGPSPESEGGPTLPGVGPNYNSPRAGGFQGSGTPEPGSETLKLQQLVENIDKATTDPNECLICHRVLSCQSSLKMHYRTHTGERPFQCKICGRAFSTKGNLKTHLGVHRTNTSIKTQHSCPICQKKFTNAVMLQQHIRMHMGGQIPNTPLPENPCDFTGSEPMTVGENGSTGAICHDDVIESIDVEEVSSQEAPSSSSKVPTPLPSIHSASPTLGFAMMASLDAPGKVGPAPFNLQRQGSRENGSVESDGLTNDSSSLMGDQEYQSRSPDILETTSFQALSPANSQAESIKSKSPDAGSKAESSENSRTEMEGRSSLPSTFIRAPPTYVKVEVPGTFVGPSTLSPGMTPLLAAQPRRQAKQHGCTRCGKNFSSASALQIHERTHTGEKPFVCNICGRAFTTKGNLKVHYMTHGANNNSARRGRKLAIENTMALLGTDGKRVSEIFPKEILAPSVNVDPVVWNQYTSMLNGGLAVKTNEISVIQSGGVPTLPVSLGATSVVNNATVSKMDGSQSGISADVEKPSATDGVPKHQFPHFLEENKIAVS
Setting: 8-mer, flanks averaged, mean of replicates
Sequence | E-score
CGACAAGA | -0.013
GGCCGTGA | -0.13
ACGACCTG | -0.186
AGGTAAAT | 0.27
GGAGCAAA | 0.0971
ACTGCGCT | 0.0457
ACGAATGA | 0.15
CGCATTAC | 0.0675
AACTCGAT | 0.118
AGGACCGA | -0.0849
CCCACACC | -0.139
GGCTACCA | -0.0982
CCCCGTGA | -0.211
ACGAGAAA | 0.174
CCGAAATA | 0.303
ACGTACCG | -0.125
TCTGTTAA | 0.192
GTCCTCGA | -0.16

Set 5 — target: CCNB2, cyclin fold, Cln2 fusion (human); method: yeast growth competition, sequencing; sample: yeast; setting: weak parent motif; reference: not given; direction: higher = stronger binding
Starting sequence: SAMHD1 docking peptide (human); ASKSRVQLFKDDP; partner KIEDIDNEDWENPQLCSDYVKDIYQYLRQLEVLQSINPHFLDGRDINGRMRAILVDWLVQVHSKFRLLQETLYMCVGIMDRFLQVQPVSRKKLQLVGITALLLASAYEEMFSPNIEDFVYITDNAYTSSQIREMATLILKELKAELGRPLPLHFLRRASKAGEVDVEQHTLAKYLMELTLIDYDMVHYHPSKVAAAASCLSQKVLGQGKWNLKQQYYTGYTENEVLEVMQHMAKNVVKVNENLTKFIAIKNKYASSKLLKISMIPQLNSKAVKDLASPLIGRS
Change | normalised enrichment score
ASKSRKQLFKDDP [V6K] | 0.539
ASKSRVQLFWDDP [K10W] | -0.294
ASKSRVQLYKDDP [F9Y] | 0.33
ASKSRVQLFKDAP [D12A] | 0.0177
ASKSRVQLFKDCP [D12C] | 0.101
AYKSRVQLFKDDP [S2Y] | 0.46
ASKSRHQLFKDDP [V6H] | -0.311
ASKSRVQLMKDDP [F9M] | 0.52
ASKSRVQLFSDDP [K10S] | 0.548
ASLSRVQLFKDDP [K3L] | -0.0219
ASKSRQQLFKDDP [V6Q] | -0.485
ASKSRVQLSKDDP [F9S] | 0.363
ASKSRVQLFKYDP [D11Y] | 0.414
ASKSEVQLFKDDP [R5E] | -0.31
AEKSRVQLFKDDP [S2E] | 0.411
ASKGRVQLFKDDP [S4G] | 0.241

Excerpt of the above (set 1):
Sequence | fluorescence intensity [a.u.]
GAAGTTTTTACTAGGCATCAGAACTGTCTCCGATAGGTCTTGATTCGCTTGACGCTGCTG | 476
CTATTACTTTTTTGTGACATCAAAATGAAGCACTTCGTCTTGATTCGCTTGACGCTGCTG | 580
CTAAGCACAAACCGTCACATGCCGTTCCGAAATTTCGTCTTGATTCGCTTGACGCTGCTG | 1470
CTATGTTTGTGGGATCTGTCACGTATATCGCCATTCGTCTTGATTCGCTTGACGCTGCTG | 724
CTACCGCAGAGTGATTGGGTCACAGGAAATAGCTTCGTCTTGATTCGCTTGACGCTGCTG | 535
CTATAGCTTAACTGGCACATCATGAAAAGGATGTTCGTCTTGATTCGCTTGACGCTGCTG | 692
GAAGGAAAGATTACCCACCTGATATGCGTTAATTAGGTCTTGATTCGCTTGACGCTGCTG | 677
GAAAAATTAAGCGGAGGTGTGATTTGTTATATCTAGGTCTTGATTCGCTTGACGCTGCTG | 575
